Experimental data pooled from the literature.
Numbered parts are unrelated; each lists some results of a single study. Positions count from the first letter of the parent shown.

Block 1
Target: Prothrombin, mature alpha-thrombin (F2, Homo sapiens, UniProt P00734)
Technique: aptamer microarray, sandwich
Form: DNA with 2'F-ANA
Matrix: in vitro
Concentration: 200 nM
Notes: whole 15-mer aptamer, many near background
Added: Cy3 exosite-II aptamer, 400 nM
Reading: higher = stronger binding
Sequence: GGTTGGTGTGGTTGG
Modification	mean fluorescence intensity [a.u.]
2'F-ANA at 8 11 15	495
2'F-ANA at 6 8 13 14 15	169
2'F-ANA at 2 3 4 7 8 10 14 15	174
2'F-ANA at 2 5 6 10 11	47.4
2'F-ANA at 1 2 3 4 5 7 8 10 13 14 15	48.1
2'F-ANA at 1 2 3 5 7 10 15	48.6
2'F-ANA at 1 2 3 9 10 12 14	57
2'F-ANA at 1 3 4 5 10 15	57.6
2'F-ANA at 2 5 8 10 12 14 15	47.3
2'F-ANA at 1 3 4 5 6 9 11 12 14 15	47.1
2'F-ANA at 1 2 3 7 8 9 11 12 15	381
2'F-ANA at 4 5 8 9 10 12 13	48.1
2'F-ANA at 2 3 4 5 6 8 12 14 15	72
2'F-ANA at 1 2 3 4 5 10 11 12 13	49.3
2'F-ANA at 4 6 8 10 11 15	66.6
2'F-ANA at 2 4 5 6 14	54.4
2'F-ANA at 3 6 7 8 9 12 13 15	1100
2'F-ANA at 1 7 12 14 15	78.8

Block 2
Target: CCND2, cyclin fold, Cln2 fusion (human)
Technique: yeast growth competition, sequencing
Matrix: yeast
Notes: weak parent motif
Baseline: not given
Reading: higher = stronger binding
Parent: USP37 docking peptide (human); PSAKRSLGFLPQP
Variant	normalised enrichment score
P11A	-0.0494
S6A	0.407
L7A	-0.218
Q12A	0.203
P1A	-0.11
K4A	0.389

Block 3
Target: RING finger protein unkempt homolog, zinc fingers 1-6, GST-SBP tag (UNK, Homo sapiens, UniProt Q9C0B0, residues 30-357)
Chain of UniProt Q9C0B0 (30-357, looked up): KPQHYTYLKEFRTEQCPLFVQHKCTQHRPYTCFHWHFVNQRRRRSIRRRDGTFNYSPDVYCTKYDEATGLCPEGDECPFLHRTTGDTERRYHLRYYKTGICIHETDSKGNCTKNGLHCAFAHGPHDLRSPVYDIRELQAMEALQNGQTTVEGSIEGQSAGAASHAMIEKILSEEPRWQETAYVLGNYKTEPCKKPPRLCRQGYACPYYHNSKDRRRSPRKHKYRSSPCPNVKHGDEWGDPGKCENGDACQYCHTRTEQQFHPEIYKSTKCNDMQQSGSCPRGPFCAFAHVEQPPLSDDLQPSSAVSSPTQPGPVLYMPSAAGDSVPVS
Technique: RNA Bind-n-Seq
Form: RNA
Matrix: in vitro
Concentration: not given
Notes: RNA with constant flanks, human-mouse chimeric sites, ends assumed
Baseline: input RNA pool
Reading: higher = stronger binding
Shared flanks, not repeated: GGGAGUUCUACAGUCCGACGAUC … CAACAGAGGAUUGAGCAUCA
Sequence	bound/input enrichment [ratio]
AAAGAACUACUGAGGCAAGGCAGCAAAUUUAGAAGAAACAUUUCAACAAUAUUGAUAGAGUUAGGAUUCCAAAUUAAAAAGAAAACUAAAAGAUUGUACAUCAACAAAGCCAAUGUGUGG	17.1
AACAUUUUGUCAAAUUGUUAUGUUCCUAAAAACGUAGUGAACACUCUGAUACACUUCAUCUGCUUGUACAUCUGUAUGAUAGAGAAAUGUAAAUAUGUUAAUCCAAGCAAUGUGUCACUU	0.239
CCUCUGCCCCGCUCUGCAGCCUGGGGACUUUUGGCAAGGACCAGAAUCCAGCUUUCUUUUAAAACUCUCAGUGUAACUGUAUCCCGUGACAUUUCAUUUUUUUUAAAUAGUGUAUUUUUU	3.54
CGGAAGUUCUUGAUUUAUCAUUUUUCUCUUUUCUUUCAGAUCGUCAGGAAAAGCCUAAAGAUUAGGUUGUAAGAAAAACAGAAGCCAUGUUUCGAAGACCUGUGUUACAGGUAUUUCGUC	0.135
UGGCGCCUCCCAUUUUUACUCGUGUUUGUAUUUUUAUUUUUAUAAGAUACAUGUAUUUACAAUUGAGCUUUUGUUACAUAAUGCUGAAAUGCUACUGGAGAUUAUGAAAAAUGUUUCAAU	0.257
AUCAAAUAUUUUGGGGAUAUUAUUAGCGUGGGACAGAGACUGUUGCAAGGAGCUCGGAUCUUAGGGAUUCCAGUUAUCAUAACGGAACAAUACCCCAAAGGACUUGGCAGCACCGUUCAA	0.302
AAAGAACCUCUCUCUGAUGAAGAUGAGGAAGACAAUGAUGAUGUUGAACCCAUUUCUGAAUUUAGAUUUGUGCCUAGUGAUAAGUCAGCAUUGGAGGCGAUGUUCACAGCAAUGUGUGAG	1.48
AAAUUUCCCCUCCUGAGACCUCCUCCGAAGUUGGAGUCUCUUACAGAUGCCUCAUCCCCUGUUAGCGUUUUAGUUUGGACCACCCAGCCUUGGACAAUUCCCGCCAACCAGGCAAUUUGC	1.18
CUCAGAGAUGUGGCAUAUCAGUAUGUGAAAAAGGGGUCUCGUAUAUUUGUGGAAGGGAAAGUGGACUAUGGUGAAUACAUGGAUAAAAACAAUGUGAGGCGGCAAGCAACAACAAUCAUA	0.394
CAACCUCAGAGCCCAGACUUCCUGGACAUUACCAACCCUAAAGCGGUAUUAGAAAAUGCAUUGAGAAACUUCGCCUGUCUGACGACUGGAGAUGUGAUUGCUAUCAACUACAAUGAGAAG	0.483
CUGUGACCACAAGAUCCUACCUGAGUGGCAGCUGAAGCACUUUUCUUCCCCUUCCCUGAACCCCCCCCCACUGCCCCCCCAUCCCCCAGUGUCGGCUGAGAUGUUGCCUCUGCACGGUUC	1.32

Block 4
Target: Ras GTPase-activating protein-binding protein 1, full length (G3BP1, Homo sapiens, UniProt Q13283)
Chain of UniProt Q13283 (whole entry, looked up): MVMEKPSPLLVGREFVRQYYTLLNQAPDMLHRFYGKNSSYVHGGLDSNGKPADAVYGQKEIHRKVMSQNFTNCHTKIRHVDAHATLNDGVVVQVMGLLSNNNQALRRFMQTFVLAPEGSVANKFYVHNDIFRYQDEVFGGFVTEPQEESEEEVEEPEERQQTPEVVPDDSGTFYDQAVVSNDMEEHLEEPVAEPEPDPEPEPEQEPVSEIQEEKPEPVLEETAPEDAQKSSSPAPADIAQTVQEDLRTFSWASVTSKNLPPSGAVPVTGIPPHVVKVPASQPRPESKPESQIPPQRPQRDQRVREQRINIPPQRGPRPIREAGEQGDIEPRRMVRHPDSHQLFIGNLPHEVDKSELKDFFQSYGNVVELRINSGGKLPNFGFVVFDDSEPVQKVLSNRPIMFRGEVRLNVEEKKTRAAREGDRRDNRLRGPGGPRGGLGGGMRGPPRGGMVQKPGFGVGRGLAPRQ
Technique: RNA Bind-n-Seq
Form: RNA
Matrix: in vitro
Concentration: 200 nM
Notes: whole 134-nt RNA, ends assumed
Added: 150 mM LiCl
Baseline: input library
Reading: higher = stronger binding
Library: 7-deaza-guanosine replaces G
Shared flanks, not repeated: GGGAGUUCUACAGUCCGACGAUC … UGGAAUUCUCGGGUGUCAAGG
Sequence	log2 enrichment
UGGCCCUGGUGGCAUGCGGGGAGGAAGAGGUGGCCUCAUGGUUCGUGGUGGUCCCGGUGGAAUGUUCAGAGGUGGCCGUGGUGGAGACAG	0.0253
UAACUUUAGAGGAGGAUCUGAUGGAUAUGGCAGUGGACGUCGAUUUGGGGAUGGCUAUAAUGGGUAUGGAGGAGGACCUGGAGGUGGCAA	-0.0432
UGUGCUACACAUCGUAUGUACCGAAUCGGCCCCCCCGGGGCCCCCCCGGGGCCCCCCCGGGGAAAGUAUUAUGUUACGCCGUUCGGAUCU	-0.898
CAAGUCCUGUGCUACACAUCGUAUGUACCGAAUCGGUUUGGUUUGGUUUUUUUGGAAAGUAUUAUGUUACGCCGUUCGGAUCUGCACUUC	-1.03
AGUCCUGUGCUACACAUCGUAUGUACCGAAUCGGGAAAAAGGGAGGGUUUUUUUGGGAAAGUAUUAUGUUACGCCGUUCGGAUCUGCACU	-1.19
UAACUUUAGAGGAGGAUCUGAUGGAUAUGGCAGUGGACGUGGAUUUGGGGAUGGCUAUAAUGGGUAUGGAGGAGGACCUGGAGGUGGCAA	-1.02
GCAGGAAGUAAAAACAAAUGGAAAUGCUUCGGAUAGUGGCAGGGGUGGGGGUUGCUAAGGAAAGGGUGGGAUGGGAGUGGGUAACGAGUU	0.362
CCUGUGCUACACAUCGUAUGUACCGAAUCGGGGUUUUUUGGGUUUUUUGGGUUUUUUGGGGAAAGUAUUAUGUUACGCCGUUCGGAUCUG	-0.301
AAGUCCUGUGCUACACAUCGUAUGUACCGAAUCGGGAAAAAGGGUGGGAAAAAGGGAAAGUAUUAUGUUACGCCGUUCGGAUCUGCACUU	-0.37
AGUCCUGUGCUACACAUCGUAUGUACCGAAUCGGGGAAAAGGGGAAAAGGAAAAGGGGAAAGUAUUAUGUUACGCCGUUCGGAUCUGCAC	0.204
CCUGUGCUACACAUCGUAUGUACCGAAUCGGGGAAAAAGGGGUUUUUUUGGGGUUUGGGGAAAGUAUUAUGUUACGCCGUUCGGAUCUGC	-1.55

Block 5
Target: RNA binding protein fox-1 homolog 2, RRM domain, GST-SBP tag (RBFOX2, Homo sapiens, UniProt O43251-10, residues 100-194)
Technique: RNA Bind-n-Seq
Form: RNA
Matrix: in vitro
Concentration: 365 nM
Notes: natural RNA segment, single round, ends assumed
Baseline: no-protein control
Reading: higher = stronger binding
Shared flanks, not repeated: GGGAGUUCUACAGUCCGACGAUC … UGGAAUUCUCGGGUGCCAA
Target sequence (chain): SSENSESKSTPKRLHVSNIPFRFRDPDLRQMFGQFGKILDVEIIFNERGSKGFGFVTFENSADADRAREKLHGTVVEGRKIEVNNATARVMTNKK
Sequence	RBNS enrichment (R)
GGUAGUGACUGAGAUGUAAAAAUAGAUUUUAGAAUUAAAACAAAAUCCAAGUCCUCACACCCCUGUCAUCCCAGGAGAUCUUUCCUUGUGGUGGUUUCUGUGAGAAUUGG	0.543
CUAUAGAGCGUCAUUUAUACGUAGUUUGGCAGAAACCACUUACGGCUGAUGAUGCGCAACCCUGCUGACUGUUUCAGUUAAUAUGCUGCACACCACACACUUGUUUAGUG	0.307
AAAAAGCAUGUAUGUUUUUUACUGUUUGUAAUAAGUACUUUCGUUAAUCUUGCUGCUUAUGUGCCAAUUUAGUGGAAAAAAACAACCCUUGCUGAAAAAUUCCCUCUUUC	1.19
GAAUGGGACUGGGCUGACGCCCUGCAUUCAGCCUGUGCCUUUCCUGGGGUUUCUUUUCUGUUCUUUUCGGAGGAGAGGGCCCGAGAAGGGGCCAUACCAGGGCGCGGCGC	0.584
GACAGACCGGGCUGGAGGGUGACCUUGGCUGUGUGCGUCCCAGCAAAAGAGCUCUGGCCCGCAUCUCGCUGUGCCCUGAAGGGGGAUGAAGGGCGAUGCCUCGCCCGAGG	0.385
AGAAAACUGUAAGCUAACAUUUAAGAUGUUUCUUCUGGAAGGAAAGUGAGCAGGAACAAGUUAUAUUGCCACUGCUGUGGCAAAUUUUGGUGAACUUUUGGGGUCAUUAU	0.492
UGAUGGAGAGCCAGCCAGUGGGGCUGUCAGCAGUGGGGGGCUUUUUAAAAGAAAACUAUUUUGAUGAAUAUAUUUAAAAAACCUUUUUUUAUUGUGGAGCAUAGGAAUUG	0.774
GGGAAAAUGGCCUUUUUAAACCCUGUCAAGCCCAUGAUGGAAGACACCACCUCUGCCAUGCCCUGUAUCCCGAGAGCUGCACACACUGCUUCCAGAUUGCUGGUUCCAGA	0.446
AGCCAAAGAAAAGCCACAUCUAAAAAGCUACUACUAAAAGCCAGAAAGAAAAGUGGAUUUGAACUCAGUGUCACAGACUCUUCUGAGUGUUUUAGGGUCACAGCUAGUGU	0.408
CCGGGAGGAGUGACUCCUCUGAAGAAGACAUGACUCAUGUUCAGUUGAGACCCCAGACUCUAGCCACACACAUGCCACAGACAUGCCAGGGAGUGGCAAAGCACUGACUC	0.705
AAACUGAAUUUGAAAUGACAAAAUGUCAAGUAUUAAAGCUGGUAUUUAAGAUGCUUGUAAAUAUUAUUUAUGUUUUUAAUUUUGUAAAAUAAAGAUUGCUUUUUAACCAU	0.663
UCACAGUUGUUAAAGUCUGUUCCAAGGCAUCACCUUCCUUCUCUACCCAACAACCCUGUGUAACAACUAAAGUAGAAUUAUCUCUCAUUUGUUGUUGUUUUUCCUCAAAA	0.329
